Assay results collected from several papers.
Numbered parts are unrelated; each lists some results of a single study. Positions count from the first letter of the parent shown.
UniProt P42336, sequence (whole entry, unmodified, looked up): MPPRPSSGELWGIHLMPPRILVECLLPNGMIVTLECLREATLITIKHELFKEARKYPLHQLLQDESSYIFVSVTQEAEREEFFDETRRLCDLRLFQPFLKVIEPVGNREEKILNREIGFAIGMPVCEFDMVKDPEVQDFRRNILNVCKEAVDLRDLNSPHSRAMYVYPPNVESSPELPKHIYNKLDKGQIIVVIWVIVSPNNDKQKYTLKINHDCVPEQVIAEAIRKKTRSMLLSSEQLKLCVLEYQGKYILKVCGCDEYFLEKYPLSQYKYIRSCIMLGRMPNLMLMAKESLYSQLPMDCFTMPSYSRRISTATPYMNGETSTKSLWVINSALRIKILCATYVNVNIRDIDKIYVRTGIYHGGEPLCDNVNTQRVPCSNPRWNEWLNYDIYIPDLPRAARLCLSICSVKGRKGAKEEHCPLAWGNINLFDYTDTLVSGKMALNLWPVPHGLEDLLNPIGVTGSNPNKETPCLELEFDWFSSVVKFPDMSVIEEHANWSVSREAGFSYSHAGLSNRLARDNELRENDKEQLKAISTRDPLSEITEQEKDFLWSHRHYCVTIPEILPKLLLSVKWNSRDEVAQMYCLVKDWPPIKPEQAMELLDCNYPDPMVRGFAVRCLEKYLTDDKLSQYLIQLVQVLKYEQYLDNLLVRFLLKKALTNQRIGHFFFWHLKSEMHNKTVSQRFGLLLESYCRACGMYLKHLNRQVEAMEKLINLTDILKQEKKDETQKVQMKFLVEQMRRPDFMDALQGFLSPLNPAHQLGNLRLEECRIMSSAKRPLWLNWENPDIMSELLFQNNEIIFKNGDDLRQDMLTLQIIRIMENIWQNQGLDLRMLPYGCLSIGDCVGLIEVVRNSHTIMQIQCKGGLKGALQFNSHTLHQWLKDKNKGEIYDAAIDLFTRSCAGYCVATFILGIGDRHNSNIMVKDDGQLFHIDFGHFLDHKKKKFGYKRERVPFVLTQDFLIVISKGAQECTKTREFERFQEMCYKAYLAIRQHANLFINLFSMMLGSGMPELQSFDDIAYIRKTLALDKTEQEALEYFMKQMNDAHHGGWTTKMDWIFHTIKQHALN
UniProt P20794, sequence (whole entry, looked up): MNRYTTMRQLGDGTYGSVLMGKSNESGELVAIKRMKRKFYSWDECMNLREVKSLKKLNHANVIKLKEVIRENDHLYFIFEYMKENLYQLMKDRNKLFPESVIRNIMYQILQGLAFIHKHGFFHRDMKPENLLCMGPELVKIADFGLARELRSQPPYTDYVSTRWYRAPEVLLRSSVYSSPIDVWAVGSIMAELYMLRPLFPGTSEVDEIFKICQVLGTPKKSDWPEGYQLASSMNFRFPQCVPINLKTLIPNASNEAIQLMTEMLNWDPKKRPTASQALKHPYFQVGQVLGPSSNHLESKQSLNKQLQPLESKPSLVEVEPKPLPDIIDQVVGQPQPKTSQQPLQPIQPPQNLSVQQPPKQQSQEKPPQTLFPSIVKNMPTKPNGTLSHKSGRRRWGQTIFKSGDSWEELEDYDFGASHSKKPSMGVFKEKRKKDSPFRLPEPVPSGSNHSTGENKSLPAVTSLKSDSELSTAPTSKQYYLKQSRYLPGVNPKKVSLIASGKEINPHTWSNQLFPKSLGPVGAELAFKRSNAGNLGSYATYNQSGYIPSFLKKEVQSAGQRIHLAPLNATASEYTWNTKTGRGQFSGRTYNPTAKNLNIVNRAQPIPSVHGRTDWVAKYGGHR
UniProt Q16566, sequence (whole entry, looked up): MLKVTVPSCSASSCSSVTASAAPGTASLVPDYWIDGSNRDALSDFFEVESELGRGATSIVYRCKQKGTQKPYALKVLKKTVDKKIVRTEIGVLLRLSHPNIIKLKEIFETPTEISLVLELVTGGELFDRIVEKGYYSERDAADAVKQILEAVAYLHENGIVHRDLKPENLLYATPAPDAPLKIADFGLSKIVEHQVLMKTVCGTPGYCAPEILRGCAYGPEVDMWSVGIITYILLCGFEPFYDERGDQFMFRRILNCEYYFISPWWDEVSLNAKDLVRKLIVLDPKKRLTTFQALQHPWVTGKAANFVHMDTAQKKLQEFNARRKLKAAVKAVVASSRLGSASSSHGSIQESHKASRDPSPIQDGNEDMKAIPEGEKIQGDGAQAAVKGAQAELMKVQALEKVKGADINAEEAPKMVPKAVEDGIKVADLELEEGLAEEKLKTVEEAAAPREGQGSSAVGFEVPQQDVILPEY
UniProt Q9UEE5, sequence (whole entry, looked up): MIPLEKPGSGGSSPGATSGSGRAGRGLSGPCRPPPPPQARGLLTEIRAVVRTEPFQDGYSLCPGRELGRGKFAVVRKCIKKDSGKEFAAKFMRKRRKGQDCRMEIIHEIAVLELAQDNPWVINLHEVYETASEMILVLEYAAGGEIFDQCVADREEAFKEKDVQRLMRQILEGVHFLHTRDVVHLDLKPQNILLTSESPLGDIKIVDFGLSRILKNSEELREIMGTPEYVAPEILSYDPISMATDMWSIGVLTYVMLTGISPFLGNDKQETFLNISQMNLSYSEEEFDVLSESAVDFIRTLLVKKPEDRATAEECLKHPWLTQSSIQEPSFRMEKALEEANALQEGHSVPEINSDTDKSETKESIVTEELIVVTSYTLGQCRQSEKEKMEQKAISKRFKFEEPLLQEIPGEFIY
UniProt Q9Y616, sequence (whole entry, looked up): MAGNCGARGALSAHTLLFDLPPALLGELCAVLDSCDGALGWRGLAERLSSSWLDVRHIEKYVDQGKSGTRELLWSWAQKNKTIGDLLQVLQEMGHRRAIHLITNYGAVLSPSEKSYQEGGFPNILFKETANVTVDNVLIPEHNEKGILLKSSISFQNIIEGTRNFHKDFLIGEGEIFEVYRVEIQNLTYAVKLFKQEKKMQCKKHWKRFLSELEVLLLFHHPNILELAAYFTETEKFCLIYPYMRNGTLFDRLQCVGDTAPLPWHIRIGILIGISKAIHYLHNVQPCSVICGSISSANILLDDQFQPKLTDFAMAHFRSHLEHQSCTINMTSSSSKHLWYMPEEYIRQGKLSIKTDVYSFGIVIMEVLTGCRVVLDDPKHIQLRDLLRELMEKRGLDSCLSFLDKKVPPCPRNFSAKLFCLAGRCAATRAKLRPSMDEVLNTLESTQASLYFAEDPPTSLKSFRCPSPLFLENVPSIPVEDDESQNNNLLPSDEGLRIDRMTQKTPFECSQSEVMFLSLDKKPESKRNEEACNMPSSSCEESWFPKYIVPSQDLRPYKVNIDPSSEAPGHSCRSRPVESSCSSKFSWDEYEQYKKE
UniProt P25098, sequence (whole entry, looked up): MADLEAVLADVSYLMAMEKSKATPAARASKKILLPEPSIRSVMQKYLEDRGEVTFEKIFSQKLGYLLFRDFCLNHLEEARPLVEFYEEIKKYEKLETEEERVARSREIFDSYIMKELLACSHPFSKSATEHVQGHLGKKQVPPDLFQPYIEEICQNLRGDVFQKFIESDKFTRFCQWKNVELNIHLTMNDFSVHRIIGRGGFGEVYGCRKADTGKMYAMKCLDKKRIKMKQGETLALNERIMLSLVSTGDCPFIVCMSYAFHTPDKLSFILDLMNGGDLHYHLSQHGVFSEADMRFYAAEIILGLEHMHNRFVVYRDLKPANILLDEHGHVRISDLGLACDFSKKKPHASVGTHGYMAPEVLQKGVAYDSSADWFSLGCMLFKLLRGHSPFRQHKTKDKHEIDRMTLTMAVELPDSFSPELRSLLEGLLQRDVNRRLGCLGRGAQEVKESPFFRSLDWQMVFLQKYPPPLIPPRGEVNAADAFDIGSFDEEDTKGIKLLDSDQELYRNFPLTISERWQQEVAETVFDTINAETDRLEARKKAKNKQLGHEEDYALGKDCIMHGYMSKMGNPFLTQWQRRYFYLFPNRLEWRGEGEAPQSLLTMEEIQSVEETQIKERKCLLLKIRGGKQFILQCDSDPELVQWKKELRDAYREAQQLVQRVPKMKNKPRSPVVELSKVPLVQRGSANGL
UniProt P22607, sequence (whole entry, unmodified, looked up): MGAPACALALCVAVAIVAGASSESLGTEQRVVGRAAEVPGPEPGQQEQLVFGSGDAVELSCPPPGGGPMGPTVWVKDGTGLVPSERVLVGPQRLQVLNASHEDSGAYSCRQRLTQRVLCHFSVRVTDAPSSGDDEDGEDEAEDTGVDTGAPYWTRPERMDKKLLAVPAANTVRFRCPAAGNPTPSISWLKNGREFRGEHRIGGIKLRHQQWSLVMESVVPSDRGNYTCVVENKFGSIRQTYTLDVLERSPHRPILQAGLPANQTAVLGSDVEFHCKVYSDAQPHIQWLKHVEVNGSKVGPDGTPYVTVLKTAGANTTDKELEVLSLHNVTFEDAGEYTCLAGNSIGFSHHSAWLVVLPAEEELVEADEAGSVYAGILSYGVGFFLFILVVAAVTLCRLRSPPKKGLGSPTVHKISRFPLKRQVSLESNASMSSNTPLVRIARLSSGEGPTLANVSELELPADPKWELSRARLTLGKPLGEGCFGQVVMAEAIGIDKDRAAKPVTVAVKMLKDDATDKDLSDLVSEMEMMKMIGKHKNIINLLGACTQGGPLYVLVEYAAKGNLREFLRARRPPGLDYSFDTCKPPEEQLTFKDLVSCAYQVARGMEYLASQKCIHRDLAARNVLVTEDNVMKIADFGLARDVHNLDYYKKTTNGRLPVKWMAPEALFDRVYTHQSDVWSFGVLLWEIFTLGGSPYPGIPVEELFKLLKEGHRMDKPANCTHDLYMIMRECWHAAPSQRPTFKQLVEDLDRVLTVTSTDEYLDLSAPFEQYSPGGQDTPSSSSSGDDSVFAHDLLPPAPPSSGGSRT

Set 1
Target: CCNF, cyclin fold, Cln2 fusion (human)
Method: yeast growth competition, sequencing
Medium: yeast
Notes: strong parent motif
Reference: not given
Direction: higher = stronger binding
Starting sequence: viral docking peptide; YKVKRRLVFGADD
| Substitution | normalised enrichment score |
| --- | --- |
| YKVKRRLVEGADD [F9E] | 1.24 |
| YKVKYRLVFGADD [R5Y] | 1.13 |
| YKVKRRLVFGLDD [A11L] | 8.86 |
| YIVKRRLVFGADD [K2I] | 8.61 |
| YKVKRRLHFGADD [V8H] | 9.14 |
| YKVKRRLLFGADD [V8L] | 9.1 |
| YKVKRRLVFMADD [G10M] | 8.45 |
| YKVYRRLVFGADD [K4Y] | 9.36 |

Set 2
SMILES: N#CC1(c2ccccn2)CCN(Cc2cc(C(=O)O)c(=O)n3ccccc23)CC1
Read-out: cell-free assay
Method: competition with immobilised ligand
Tested at: 1 µM
| target | remaining binding [%] |
| --- | --- |
| Phosphatidylinositol 4,5-bisphosphate 3-kinase catalytic subunit alpha isoform (PIK3CA, Homo sapiens, UniProt P42336) | 100 |
| Epidermal growth factor receptor (EGFR, Homo sapiens, UniProt P00533, del747-750/T751S) | 97 |
| Peripheral plasma membrane protein CASK (CASK, Homo sapiens, UniProt O14936) | 100 |
| Ephrin type-B receptor 6 (EPHB6, Homo sapiens, UniProt O15197) | 73 |
| Interleukin-1 receptor-associated kinase 3 (IRAK3, Homo sapiens, UniProt Q9Y616) | 100 |
| Tyrosine-protein kinase Fes/Fps (FES, Homo sapiens, UniProt P07332) | 99 |
| Serine/threonine-protein kinase MAK (MAK, Homo sapiens, UniProt P20794) | 97 |
| Mast/stem cell growth factor receptor Kit (KIT, Homo sapiens, UniProt P10721, A829P) | 84 |
| Fibroblast growth factor receptor 3 (FGFR3, Homo sapiens, UniProt P22607, G697C) | 100 |
| Phosphatidylinositol 4,5-bisphosphate 3-kinase catalytic subunit alpha isoform (PIK3CA, Homo sapiens, UniProt P42336, H1047Y) | 100 |
| Calcium/calmodulin-dependent protein kinase type IV (CAMK4, Homo sapiens, UniProt Q16566) | 84 |
| Phosphatidylinositol 5-phosphate 4-kinase type-2 beta (PIP4K2B, Homo sapiens, UniProt P78356) | 100 |
| Mitotic checkpoint serine/threonine-protein kinase BUB1 (BUB1, Homo sapiens, UniProt O43683) | 100 |
| Tyrosine-protein kinase ABL1, phosphorylated (ABL1, Homo sapiens, UniProt P00519, T315I) | 91 |
| Dual specificity mitogen-activated protein kinase kinase 7 (MAP2K7, Homo sapiens, UniProt O14733) | 95 |
| Serine/threonine-protein kinase 17A (STK17A, Homo sapiens, UniProt Q9UEE5) | 100 |
| Epidermal growth factor receptor (EGFR, Homo sapiens, UniProt P00533, G719C) | 100 |

Set 3
Target: HLA class I histocompatibility antigen, C alpha chain, allele C*04:01 (Homo sapiens, UniProt P10321)
Read-out: peptide-MHC binding
Form: peptide
Tested at: concentration not given
| Sequence | binding |
| --- | --- |
| YMYDFILRF | inactive |
| APRGFRAAF | inactive |
| SSDLRSWTF | inactive |
| YQLEMYHPI | inactive |
| RWRWFRAAM | inactive |
| LPAEVRAAF | inactive |
| MVLSGTLAY | inactive |
| LEARVNLSV | inactive |

Other studies, line by line
| SMILES | target | read-out | action | tested at | reference | endpoint | result |
| --- | --- | --- | --- | --- | --- | --- | --- |
| O=C1NC(=O)c2c1c1c3ccccc3n3c1c1c2c2ccccc2n1[C@H]1CC[C@@H]3O1 | Beta-adrenergic receptor kinase 1 (GRK2, Homo sapiens, UniProt P25098) | enzyme activity | inhibitor | 0.5 µM | control | remaining activity | 97.9% |

A few entries again (set 1):
| Substitution | normalised enrichment score |
| --- | --- |
| YKVKRRLLFGADD [V8L] | 9.1 |
| YKVKRRLVFGLDD [A11L] | 8.86 |
